Experimental data gathered from unrelated publications.
A part holds a random share of what one study measured. Substitutions count along the parent as printed.
Chain of UniProt P60604 (whole entry, looked up): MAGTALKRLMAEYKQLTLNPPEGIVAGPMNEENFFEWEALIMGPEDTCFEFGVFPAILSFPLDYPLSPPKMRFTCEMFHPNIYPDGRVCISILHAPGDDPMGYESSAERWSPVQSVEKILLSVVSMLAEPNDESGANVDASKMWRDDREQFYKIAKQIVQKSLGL
Chain of UniProt Q8WVN8 (whole entry, looked up): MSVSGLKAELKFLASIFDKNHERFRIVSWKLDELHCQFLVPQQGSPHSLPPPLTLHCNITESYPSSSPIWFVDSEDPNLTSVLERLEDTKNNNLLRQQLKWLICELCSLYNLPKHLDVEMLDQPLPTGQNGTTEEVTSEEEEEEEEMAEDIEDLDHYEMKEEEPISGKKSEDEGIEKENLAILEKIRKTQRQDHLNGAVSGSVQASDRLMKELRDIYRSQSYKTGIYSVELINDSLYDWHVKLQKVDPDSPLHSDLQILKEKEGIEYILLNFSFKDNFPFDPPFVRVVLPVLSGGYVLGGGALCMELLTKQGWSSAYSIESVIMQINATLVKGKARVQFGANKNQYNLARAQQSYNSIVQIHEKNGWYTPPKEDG
Chain of UniProt P61088 (whole entry, looked up): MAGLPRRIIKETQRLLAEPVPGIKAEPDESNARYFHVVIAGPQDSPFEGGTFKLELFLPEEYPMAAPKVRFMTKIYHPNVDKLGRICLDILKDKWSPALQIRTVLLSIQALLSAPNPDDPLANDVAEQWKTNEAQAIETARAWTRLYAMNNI
Chain of UniProt Q15819 (whole entry, looked up): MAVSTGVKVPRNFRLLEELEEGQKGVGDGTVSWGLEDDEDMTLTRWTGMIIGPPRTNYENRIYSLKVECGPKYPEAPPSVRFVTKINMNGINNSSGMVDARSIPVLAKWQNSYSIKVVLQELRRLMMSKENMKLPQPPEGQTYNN
Chain of UniProt O14933 (whole entry, looked up): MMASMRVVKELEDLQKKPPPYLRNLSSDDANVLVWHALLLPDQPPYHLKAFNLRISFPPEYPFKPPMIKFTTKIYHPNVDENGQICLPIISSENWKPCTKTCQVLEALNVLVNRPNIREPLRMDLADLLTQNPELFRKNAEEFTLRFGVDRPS
Chain of UniProt P51965 (whole entry, looked up): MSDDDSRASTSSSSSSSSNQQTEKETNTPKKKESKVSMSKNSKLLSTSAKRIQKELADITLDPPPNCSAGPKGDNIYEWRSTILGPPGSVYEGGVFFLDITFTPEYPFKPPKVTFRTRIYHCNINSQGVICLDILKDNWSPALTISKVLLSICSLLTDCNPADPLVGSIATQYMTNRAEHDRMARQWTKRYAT

Block 1 — technique: DHFR PCA, dose-response; sample: yeast; together with: (+)-ABA, dose series; reading: lower = more sensitive
Target: ABI1, truncated, D143A, DHFR fusion (Arabidopsis thaliana, UniProt P49597)
Notes: Hill fit, not affinity, not high confidence
Starting sequence: PYL1, truncated, DHFR fusion (Arabidopsis thaliana, UniProt Q8VZS8); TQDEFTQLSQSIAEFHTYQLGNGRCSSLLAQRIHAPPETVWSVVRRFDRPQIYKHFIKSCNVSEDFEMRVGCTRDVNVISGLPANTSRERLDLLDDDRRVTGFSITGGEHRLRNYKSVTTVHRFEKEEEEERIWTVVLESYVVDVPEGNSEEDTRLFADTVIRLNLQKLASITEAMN
Substitution	ABA EC50 [µM]
E174N	27.4
P146I	325
Q19H	0.586
V40N	0.686
L169Q	548
L169A	840
A84F	2.15
T120D	2230

Block 2 — technique: RNA Bind-n-Seq; molecule type: RNA; sample: in vitro; concentration: 365 nM; relative to: no-protein control; reading: higher = stronger binding
Target: RNA binding protein fox-1 homolog 2, RRM domain, GST-SBP tag (RBFOX2, Homo sapiens, UniProt O43251-10, residues 100-194)
Notes: natural RNA segment, single round, ends assumed
Constant ends, left off below: GGGAGUUCUACAGUCCGACGAUC … UGGAAUUCUCGGGUGCCAA
Residues (chain): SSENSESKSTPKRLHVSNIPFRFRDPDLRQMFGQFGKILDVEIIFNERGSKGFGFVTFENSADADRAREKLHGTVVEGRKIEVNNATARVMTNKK
Sequence	RBNS enrichment (R)
AUAUAUUUCCUAAAAUCUUUUUAAAGUGAAUUUAUAUGUGCACAUAUGUGUGUGUAGGGGGAGGAUAAGAACUGAAUUAUUUGAAACAGGUUAUUAUUUGAAACUGUAUU	0.661
CAGUGAGCUCAGGUGUCUCAAAGAAGGGUGGAAGUUCUAAUGUCUGUUAGCUACCCAUAAGAAUGCUGUUUGCUGCAGUUCUGUGUCCUGUGCUUGGAUGCUUUUUAUAA	2.87
GUUUGAAUGUGUAAAUGGGUGAUCUCUCUGAGUCCUGGCAACAUCCAGCAAAACUACUGCUUAUUCUCCAAAGAAUAUUGGGAGCUCUCAAUCCUCGGUGAUAUGGGAAA	0.67
AAGGAAUUUAUUACAAUGUAUCUUUAUUAAAACAAAAGGGUGUAUAGUGUUCACAAACUGUGAAAAUAGUGUAAGAACUGUACAUUGUGAGCUCUGGUUAUUUUUCUCUU	0.422
ACUCCCUUUGCUCACUCCAUUCGGGUCCACAGCUGAGGUUGCCGCUGACAAGAUGAAUGGGCACUGCCUGCCCUUCUAGUGAAAAGGCUUGGCUAUGGCCCUGUGUGACU	0.445
CUUAACAUUAUCAGUCAACUUCCACAUUAAUGAAAGUUGACCAUAGUUAUUUCCAAAUAAAAAGAAACCAACUCUUACCAGGUCUUGGACUGUGAUGUCAUAUUAUUCAG	0.328
ACACGAGCCCAUUUUUACCAAGAUUUGAUCAGUGUCUUUACUGAGCUGGAAGCCUCUGAAAGUUAUUAAAGGACAGAAUCCAAAAGAAUGCCUUUAAUUCUUGUCUGAGA	0.25
GGUCUAGAACCCGGCUCUGGGGCACUGGCCUAGUUCCCGACUUGUUUCUCAGGUGUGAAUCAACUUCUUGGGCCUUGGCUCUGAGUUGGAAAAGGUUUUAGAAAAAGUGA	0.262

Block 3 — technique: yeast two-hybrid; sample: yeast; notes: mostly zero background; relative to: not given; reading: higher = stronger interaction
Molecule: ASLPTSEEDLCPICYAHPISAVFQPCGHKSCKACINQHLMNNKDCFFCKTTIVSVEDWE (RNF123 RING domain (UniProt Q5XPI4))
target	lacZ reporter activity
UBE2N UBC core domain (UniProt P61088)	0
UBE2E1 UBC core domain (UniProt P51965)	0
UBE2L6 UBC core domain (UniProt O14933)	0
UBE2G2 UBC core domain (UniProt P60604)	0
UBE2Q2 UBC core domain (UniProt Q8WVN8)	0
UBE2V2 UBC core domain (UniProt Q15819)	0

Further values, each from its own experiment
Molecule	target	assay	test system	setting	quantity	value
TTDDSTSYY	HLA class I histocompatibility antigen, A alpha chain, allele A*80:01 (Homo sapiens, UniProt P04439)	peptide-MHC binding	peptide	concentration not given	binding	inactive
